Published values collected from several papers.
Compare with care: the assays were run in different laboratories. Several values in a cell are separate wells, animals, samples, runs or records.
B1: AAGAB 2-177 (Homo sapiens, UniProt Q6PD74); sequence looked up; chain AAGVPCALVTSCSSVFSGDQLVQHILGTEDLIVEVTSNDAVRFYPWTIDNKYYSADINLCVVPNKFLVTAEIAESVQAFVVYFDSTQKSGLDSVSSWLPLAKAWLPEVMILVCDRVSEDGINRQKAQEWCIKHGFELVELSPEELPEEDDDFPESTGVKRIVQALNANVWSNVVMK
B2: TEPSIN W188S/D189S/E190S/L191S (Homo sapiens, UniProt Q96N21); chain MAAAPPLRDRLSFLHRLPILLKGTSDDDVPCPGYLFEEIAKISHESPGSSQCLLEYLLSRLHSSSGHGKLKVLKILLYLCSHGSSFFLLILKRNSAFIQEAAAFAGPPDPLHGNSLYQKVRAAAQDLGSTLFSDTVLPLAPSQPLGTPPATGMGSQARPHSTLQGFGYSKEHGRTAVRHQPGQAGGGSSSSDSGPSSQNSSQNSDLSRVSDSGSHSGSDSHSGASREPGDLAERVEVVALSDCQQELSLVRTVTRGPRAFLSREEAQHFIKACGLLNCEAVLQLLTCHLRGTSECTQLRALCAIASLGSSDLLPQEHILLRTRPWLQELSMGSPGPVTNKATKILRHFEASCGQLSPARGTSAEPGPTAALPGPSDLLTDAVPLPGSQVFLQPLSSTPVSSRSPAPSSGMPSSPVPTPPPDASPIPAPGDPSEAEARLAESRRWRPERIPGGTDSPKRGPSSCAWSRDSLFAGMELVACPRLVGAGAAAGESCPDAPRAPQTSSQRTAAKEPPGSEPSAFAFLNA
Chain of UniProt Q96AP0 (whole entry, looked up): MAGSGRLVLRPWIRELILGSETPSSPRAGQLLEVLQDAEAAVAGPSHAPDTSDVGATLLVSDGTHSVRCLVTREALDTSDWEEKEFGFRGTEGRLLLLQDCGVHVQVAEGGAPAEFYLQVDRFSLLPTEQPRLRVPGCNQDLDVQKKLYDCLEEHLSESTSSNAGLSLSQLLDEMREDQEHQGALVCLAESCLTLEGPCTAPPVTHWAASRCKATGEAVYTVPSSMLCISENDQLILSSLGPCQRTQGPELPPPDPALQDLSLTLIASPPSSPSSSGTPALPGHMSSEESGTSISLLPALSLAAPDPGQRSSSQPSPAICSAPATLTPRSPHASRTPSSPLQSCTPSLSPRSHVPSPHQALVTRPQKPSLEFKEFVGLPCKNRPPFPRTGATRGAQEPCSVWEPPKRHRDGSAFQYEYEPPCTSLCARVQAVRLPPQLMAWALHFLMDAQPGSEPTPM
Chain of UniProt Q08431 (whole entry, looked up): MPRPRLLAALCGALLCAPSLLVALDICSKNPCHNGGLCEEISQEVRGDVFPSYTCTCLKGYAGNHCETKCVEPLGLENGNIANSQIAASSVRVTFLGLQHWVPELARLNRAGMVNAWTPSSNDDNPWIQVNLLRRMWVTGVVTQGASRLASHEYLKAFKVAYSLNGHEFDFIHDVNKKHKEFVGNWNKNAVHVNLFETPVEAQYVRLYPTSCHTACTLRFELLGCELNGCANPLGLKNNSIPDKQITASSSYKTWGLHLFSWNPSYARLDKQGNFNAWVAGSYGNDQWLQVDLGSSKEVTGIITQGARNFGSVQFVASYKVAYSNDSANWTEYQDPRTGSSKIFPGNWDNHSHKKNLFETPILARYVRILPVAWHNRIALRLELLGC
Chain of UniProt Q99996 (whole entry, looked up): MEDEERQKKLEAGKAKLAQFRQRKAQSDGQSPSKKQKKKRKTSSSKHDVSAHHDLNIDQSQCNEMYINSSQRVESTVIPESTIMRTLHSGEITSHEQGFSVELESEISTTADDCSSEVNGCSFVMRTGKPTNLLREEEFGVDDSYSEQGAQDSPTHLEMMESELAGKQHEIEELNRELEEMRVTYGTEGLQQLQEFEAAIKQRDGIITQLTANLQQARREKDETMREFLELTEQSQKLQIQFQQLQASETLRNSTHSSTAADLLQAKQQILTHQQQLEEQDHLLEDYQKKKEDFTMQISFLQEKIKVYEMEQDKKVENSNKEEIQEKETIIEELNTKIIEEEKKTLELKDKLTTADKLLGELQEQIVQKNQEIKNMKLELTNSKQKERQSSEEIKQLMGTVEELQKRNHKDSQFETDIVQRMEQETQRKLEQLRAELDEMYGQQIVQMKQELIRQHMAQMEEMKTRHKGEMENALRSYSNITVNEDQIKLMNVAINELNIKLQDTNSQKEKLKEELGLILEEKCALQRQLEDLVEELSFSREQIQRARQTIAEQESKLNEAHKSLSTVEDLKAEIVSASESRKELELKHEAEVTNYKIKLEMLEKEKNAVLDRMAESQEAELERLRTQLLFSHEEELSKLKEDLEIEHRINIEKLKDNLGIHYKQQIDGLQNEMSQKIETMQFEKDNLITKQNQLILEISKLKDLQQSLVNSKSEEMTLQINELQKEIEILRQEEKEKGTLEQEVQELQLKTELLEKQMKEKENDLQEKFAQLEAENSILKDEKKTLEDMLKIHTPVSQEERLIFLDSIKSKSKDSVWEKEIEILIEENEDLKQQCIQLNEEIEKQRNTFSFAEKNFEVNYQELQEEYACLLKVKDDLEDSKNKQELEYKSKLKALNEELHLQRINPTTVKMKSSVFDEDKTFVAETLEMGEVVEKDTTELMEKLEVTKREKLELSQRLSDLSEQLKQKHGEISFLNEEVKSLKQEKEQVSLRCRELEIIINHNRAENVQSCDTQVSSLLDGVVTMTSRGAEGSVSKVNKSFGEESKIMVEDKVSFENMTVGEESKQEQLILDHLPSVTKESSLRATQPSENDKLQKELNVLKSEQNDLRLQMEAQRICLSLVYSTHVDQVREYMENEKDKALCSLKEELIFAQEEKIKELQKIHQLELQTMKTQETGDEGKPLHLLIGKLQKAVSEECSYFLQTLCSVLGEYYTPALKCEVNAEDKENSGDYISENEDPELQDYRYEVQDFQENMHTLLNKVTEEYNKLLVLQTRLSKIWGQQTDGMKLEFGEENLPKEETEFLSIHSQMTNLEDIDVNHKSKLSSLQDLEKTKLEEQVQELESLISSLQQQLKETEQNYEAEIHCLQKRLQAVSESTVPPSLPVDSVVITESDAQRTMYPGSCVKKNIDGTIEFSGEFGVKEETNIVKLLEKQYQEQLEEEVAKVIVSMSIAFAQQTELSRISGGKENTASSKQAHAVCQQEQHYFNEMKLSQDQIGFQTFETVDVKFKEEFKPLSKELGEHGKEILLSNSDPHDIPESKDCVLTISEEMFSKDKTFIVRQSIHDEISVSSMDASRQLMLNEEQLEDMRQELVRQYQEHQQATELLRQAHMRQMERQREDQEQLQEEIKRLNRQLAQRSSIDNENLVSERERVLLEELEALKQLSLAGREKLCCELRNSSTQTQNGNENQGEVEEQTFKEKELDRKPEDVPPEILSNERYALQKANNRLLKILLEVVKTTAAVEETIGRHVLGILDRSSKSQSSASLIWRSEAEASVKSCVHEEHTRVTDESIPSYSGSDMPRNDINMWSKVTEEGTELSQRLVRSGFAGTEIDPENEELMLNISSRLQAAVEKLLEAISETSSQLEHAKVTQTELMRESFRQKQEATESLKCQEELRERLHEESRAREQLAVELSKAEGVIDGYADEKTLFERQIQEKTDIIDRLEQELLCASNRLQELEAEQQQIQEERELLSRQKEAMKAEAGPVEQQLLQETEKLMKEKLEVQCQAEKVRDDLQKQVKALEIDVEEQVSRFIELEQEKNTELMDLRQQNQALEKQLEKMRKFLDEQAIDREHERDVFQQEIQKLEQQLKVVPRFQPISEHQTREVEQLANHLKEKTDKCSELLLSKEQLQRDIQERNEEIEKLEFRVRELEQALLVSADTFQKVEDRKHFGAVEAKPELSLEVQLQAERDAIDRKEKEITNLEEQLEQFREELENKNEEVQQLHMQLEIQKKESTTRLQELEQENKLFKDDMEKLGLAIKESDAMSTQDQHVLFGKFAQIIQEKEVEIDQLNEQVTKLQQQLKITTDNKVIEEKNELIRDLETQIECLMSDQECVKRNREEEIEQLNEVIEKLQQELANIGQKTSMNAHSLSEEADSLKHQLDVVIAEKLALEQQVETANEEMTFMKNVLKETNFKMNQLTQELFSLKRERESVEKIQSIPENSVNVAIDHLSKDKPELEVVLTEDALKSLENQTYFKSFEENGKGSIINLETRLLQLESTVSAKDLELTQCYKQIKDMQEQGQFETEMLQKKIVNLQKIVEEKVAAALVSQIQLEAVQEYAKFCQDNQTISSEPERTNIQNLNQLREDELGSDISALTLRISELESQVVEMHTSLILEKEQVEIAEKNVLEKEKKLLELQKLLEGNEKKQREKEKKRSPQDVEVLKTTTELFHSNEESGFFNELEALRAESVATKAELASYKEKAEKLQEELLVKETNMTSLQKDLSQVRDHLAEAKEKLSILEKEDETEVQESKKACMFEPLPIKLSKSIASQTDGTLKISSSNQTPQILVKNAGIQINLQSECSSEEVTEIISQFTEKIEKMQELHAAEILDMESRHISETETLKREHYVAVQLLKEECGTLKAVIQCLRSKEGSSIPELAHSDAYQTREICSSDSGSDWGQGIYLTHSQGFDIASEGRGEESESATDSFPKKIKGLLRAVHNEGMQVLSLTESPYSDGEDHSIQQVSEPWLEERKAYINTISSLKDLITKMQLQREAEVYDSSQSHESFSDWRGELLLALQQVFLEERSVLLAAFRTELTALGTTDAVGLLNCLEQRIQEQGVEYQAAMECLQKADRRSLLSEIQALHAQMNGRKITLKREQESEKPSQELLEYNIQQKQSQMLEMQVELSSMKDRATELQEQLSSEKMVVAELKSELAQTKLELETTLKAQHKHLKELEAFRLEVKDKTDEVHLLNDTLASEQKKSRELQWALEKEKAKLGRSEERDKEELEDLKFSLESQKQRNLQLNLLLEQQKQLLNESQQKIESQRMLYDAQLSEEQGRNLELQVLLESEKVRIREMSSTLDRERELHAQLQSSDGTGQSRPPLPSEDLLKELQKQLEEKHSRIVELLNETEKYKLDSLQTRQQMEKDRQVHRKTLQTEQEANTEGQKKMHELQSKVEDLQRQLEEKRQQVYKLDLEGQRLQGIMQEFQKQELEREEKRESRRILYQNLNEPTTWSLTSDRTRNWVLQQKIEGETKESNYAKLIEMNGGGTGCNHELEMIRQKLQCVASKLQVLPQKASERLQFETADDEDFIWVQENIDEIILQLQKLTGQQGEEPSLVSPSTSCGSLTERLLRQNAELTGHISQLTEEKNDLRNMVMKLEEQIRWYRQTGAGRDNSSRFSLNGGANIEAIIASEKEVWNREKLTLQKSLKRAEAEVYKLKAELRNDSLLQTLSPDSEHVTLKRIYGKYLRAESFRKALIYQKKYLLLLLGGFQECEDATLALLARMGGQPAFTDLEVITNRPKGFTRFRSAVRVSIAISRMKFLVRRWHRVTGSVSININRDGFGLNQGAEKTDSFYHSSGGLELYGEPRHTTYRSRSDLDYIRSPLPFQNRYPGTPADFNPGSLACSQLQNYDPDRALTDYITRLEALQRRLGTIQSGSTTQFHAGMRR

PKRSFIESNV
binding intensity (human SCRIB PDZ3-4 tandem (MBP fusion); automated holdup; peptide, purified PDZ protein; concentration not given, unit not given; relative to: biotin control resin, higher = stronger binding): 0.945

medin (Homo sapiens, UniProt Q08431)
lag time (amyloid-β fragment; Thioflavin T fluorescence; 20 µM, equimolar mixture; higher = slower aggregation): 6.5 h

FGA (Homo sapiens, UniProt P02671)
cross-linked residues (MIER2 (Homo sapiens, UniProt Q8N344); cross-linking MS; with: DSSO): K238 to K195

POT1 T416A (Homo sapiens)
relative binding (ACD (Homo sapiens, UniProt Q96AP0); co-IP; HEK-293T; POT1 knockout; relative to: wild-type POT1, higher = more TPP1 bound): 0.91

KRT8 (Homo sapiens, UniProt P05787)
cross-linked residues (AKAP9 (Homo sapiens, UniProt Q99996); cross-linking MS; cells; with: iqPIR): K8 to K949

TAF4 (Homo sapiens, UniProt O00268)
cross-linked residues (ALB (Homo sapiens, UniProt P02768); cross-linking MS; with: DSSO): K955 to K219

B1 (AAGAB 2-177)
subunits per oligomer (AP1S3 (Homo sapiens, UniProt Q96PC3-1); SEC): 1

PDE4D3/GFP (Homo sapiens)
relative binding (AKAP6 P1400S (Homo sapiens, UniProt Q13023-1); co-IP; HEK293; P1400S mutant, without stimulation; relative to: normalised to mAKAP precipitated, higher = more PDE4D3 bound): 3.28

SEKHFRETEV
normalised SPR binding response (human MAGI1-2/6 PDZ construct (MBP fusion); surface plasmon resonance; peptide; concentration not given; higher = stronger binding): 34.9 normalised RU

PSPFTPPPPQTPSP (SOS1 proline-rich peptide, 1253-1266)
chemical shift perturbation (GRB2 1-58 (Homo sapiens, UniProt P62993); NMR titration; peptide): 0.04 ppm

TARS1 (Homo sapiens, UniProt P26639)
cross-linked residues (Hemoglobin subunit alpha (Homo sapiens, UniProt P69905); cross-linking MS; with: DSSO or DMTMM): D421 to K41

B2 (TEPSIN W188S/D189S/E190S/L191S)
kon (MAP1LC3B 1-120 (Homo sapiens, UniProt Q9GZQ8); BLI): 659 M⁻¹ s⁻¹ and 702 M⁻¹ s⁻¹ and 849 M⁻¹ s⁻¹ and 426 M⁻¹ s⁻¹

FGG (Homo sapiens, UniProt P02679)
cross-linked residues (VPS13D (Homo sapiens, UniProt Q5THJ4); cross-linking MS; with: DSSO): K177 to K2055

NGVTKTILEPRARVAKDYGK (gld-3 860-879 E874A (Caenorhabditis elegans, UniProt Q95ZK7); sequence looked up)
competition IC50 (fbf-2 164-575 (Caenorhabditis elegans, UniProt Q09312); fluorescence polarisation; peptide; relative to: wild-type GLD-3, higher = weaker competition): 2 fold
